Measured values collected from several papers.
A part holds a random share of what one study measured.
Chain of UniProt O75582 (whole entry, looked up): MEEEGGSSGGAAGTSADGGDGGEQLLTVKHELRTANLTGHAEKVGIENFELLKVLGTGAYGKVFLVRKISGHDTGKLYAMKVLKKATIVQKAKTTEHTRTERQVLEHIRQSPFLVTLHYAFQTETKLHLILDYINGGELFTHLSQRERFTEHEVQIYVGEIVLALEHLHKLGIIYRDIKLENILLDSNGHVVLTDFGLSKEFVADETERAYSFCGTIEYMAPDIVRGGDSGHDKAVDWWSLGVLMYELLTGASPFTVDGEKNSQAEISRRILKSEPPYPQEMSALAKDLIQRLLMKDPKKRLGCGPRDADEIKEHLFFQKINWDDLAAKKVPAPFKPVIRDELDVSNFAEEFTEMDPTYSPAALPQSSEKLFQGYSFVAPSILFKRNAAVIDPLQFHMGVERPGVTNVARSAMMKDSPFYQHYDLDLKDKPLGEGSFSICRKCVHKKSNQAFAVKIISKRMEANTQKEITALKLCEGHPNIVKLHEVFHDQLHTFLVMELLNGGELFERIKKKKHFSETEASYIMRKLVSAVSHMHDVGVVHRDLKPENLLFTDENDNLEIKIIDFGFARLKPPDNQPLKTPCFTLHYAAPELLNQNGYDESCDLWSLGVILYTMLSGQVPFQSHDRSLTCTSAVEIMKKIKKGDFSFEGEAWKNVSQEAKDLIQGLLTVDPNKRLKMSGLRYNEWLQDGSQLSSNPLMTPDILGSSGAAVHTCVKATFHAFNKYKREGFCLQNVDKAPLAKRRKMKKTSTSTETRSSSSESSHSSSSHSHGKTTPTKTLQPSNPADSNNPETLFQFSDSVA
Chain of UniProt O15530 (whole entry, looked up): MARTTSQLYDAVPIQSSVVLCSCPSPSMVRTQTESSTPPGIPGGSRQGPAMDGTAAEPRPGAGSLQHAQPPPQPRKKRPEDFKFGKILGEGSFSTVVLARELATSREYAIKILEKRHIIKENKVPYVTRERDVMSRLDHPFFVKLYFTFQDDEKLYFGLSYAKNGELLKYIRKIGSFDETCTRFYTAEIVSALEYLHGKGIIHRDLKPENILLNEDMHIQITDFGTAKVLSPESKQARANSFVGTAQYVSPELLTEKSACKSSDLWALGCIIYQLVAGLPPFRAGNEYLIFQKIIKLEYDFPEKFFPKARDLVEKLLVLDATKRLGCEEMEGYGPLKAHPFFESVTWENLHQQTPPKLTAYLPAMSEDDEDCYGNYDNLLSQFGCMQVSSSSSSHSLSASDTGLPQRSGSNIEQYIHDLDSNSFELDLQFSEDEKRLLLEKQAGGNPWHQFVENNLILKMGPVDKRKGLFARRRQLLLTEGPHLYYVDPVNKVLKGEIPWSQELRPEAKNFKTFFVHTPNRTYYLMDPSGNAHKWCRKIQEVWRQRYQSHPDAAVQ
Chain of UniProt Q8TDR2 (whole entry, looked up): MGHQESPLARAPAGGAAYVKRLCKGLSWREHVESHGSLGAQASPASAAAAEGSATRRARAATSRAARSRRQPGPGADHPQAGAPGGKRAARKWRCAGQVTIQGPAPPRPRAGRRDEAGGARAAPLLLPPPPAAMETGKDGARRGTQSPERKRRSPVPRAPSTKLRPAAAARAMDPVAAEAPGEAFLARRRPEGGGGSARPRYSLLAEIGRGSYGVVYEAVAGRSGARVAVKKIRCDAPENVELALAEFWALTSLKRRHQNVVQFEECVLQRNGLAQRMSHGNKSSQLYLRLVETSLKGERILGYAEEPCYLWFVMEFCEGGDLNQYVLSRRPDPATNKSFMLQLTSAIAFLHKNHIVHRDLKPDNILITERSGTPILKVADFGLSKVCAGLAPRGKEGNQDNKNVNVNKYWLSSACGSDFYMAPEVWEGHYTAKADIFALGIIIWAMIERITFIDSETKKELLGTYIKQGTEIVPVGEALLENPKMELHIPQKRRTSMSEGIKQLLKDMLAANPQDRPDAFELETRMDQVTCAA
Chain of UniProt Q8TD08 (whole entry, looked up): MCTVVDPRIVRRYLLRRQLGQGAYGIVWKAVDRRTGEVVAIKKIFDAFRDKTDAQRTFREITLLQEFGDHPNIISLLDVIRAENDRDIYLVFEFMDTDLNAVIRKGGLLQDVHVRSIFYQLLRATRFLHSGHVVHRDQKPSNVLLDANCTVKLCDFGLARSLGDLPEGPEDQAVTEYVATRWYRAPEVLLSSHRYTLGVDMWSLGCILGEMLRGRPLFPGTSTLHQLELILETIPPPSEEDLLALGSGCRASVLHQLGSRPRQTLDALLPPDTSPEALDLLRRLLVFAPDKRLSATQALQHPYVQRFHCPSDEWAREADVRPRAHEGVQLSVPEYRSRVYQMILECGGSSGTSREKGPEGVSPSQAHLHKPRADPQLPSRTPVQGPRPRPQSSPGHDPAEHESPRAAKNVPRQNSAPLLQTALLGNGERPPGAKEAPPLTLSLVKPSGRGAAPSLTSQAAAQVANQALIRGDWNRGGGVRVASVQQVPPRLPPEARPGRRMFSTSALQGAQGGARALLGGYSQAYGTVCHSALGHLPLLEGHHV
Chain of UniProt Q9UM73 (whole entry, unmodified, looked up): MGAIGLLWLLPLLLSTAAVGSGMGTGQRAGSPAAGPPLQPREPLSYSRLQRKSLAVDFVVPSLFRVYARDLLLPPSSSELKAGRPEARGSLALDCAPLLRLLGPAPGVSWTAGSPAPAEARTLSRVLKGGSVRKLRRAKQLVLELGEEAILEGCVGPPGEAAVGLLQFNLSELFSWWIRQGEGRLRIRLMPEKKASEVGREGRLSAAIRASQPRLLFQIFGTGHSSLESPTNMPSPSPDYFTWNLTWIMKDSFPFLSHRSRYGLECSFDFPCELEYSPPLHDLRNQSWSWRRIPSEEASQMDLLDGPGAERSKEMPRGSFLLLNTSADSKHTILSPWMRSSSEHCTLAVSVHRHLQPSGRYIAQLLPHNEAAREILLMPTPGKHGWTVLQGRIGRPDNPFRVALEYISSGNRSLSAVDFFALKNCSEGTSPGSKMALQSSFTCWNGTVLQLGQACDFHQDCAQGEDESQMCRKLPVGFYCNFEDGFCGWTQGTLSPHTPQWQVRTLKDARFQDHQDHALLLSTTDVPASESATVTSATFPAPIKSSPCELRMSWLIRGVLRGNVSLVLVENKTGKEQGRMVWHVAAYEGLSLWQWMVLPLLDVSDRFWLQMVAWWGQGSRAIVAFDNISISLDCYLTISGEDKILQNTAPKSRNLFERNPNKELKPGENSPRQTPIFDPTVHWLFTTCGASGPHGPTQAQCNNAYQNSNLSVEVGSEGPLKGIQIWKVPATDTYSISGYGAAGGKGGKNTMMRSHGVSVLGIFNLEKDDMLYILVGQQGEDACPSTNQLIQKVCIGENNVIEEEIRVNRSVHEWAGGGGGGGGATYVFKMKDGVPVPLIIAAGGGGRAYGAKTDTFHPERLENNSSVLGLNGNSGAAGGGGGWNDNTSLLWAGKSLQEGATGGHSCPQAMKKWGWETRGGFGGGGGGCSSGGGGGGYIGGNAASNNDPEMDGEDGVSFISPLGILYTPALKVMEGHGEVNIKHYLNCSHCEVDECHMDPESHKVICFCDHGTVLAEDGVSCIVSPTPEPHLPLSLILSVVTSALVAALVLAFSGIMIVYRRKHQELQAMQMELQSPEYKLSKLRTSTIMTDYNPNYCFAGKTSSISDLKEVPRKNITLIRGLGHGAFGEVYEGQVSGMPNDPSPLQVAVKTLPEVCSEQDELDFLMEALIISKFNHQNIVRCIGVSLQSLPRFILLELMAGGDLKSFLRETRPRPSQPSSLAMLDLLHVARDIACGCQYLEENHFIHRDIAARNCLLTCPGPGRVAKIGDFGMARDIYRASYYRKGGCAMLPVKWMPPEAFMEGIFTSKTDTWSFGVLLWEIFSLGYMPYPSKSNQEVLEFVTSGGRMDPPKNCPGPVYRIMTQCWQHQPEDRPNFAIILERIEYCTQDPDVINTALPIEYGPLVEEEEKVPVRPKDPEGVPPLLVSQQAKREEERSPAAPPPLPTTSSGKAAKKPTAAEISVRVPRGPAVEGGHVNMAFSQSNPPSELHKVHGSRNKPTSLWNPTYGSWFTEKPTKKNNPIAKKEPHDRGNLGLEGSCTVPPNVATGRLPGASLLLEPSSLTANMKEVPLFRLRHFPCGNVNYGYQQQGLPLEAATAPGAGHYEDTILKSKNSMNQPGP
Chain of UniProt O14965 (whole entry, looked up): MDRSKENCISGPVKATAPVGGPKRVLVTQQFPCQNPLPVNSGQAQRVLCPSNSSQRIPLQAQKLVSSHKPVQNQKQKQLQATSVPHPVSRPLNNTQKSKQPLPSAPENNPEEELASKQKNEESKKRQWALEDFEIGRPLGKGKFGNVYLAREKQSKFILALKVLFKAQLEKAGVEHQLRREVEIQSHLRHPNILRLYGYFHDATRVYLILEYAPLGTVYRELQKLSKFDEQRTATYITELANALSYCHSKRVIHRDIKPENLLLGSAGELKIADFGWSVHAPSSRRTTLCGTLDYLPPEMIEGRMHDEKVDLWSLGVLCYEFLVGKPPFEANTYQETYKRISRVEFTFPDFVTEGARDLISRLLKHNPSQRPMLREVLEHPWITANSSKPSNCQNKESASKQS
Chain of UniProt Q96PF2 (whole entry, looked up): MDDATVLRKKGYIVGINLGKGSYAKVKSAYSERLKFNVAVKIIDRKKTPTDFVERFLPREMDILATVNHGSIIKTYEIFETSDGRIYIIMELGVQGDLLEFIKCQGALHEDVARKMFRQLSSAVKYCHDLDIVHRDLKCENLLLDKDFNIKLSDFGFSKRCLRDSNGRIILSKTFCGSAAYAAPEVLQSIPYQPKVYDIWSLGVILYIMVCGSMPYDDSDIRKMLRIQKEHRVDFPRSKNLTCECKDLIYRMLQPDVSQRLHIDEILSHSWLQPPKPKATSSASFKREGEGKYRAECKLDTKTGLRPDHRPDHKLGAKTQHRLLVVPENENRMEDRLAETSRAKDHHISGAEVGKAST

Sample 1
SMILES: CC(C)n1cnc(-c2ccc(F)cc2)c1-c1ncc(C(=O)Nc2ccc(N3CCN(C)CC3)cc2)[nH]1
Measurement: patients with adverse event
test = Phase 2a trial, refers to: blood urea increased; system = human, idiopathic pulmonary fibrosis; conditions = 30 mg once daily, grade 3; result = 0%
test = Phase 2a trial, refers to: hypertriglyceridaemia; system = human, idiopathic pulmonary fibrosis; conditions = 60 mg once daily, grade 5; result = 0%
test = refers to: abnormal liver function test, grade 1; system = idiopathic pulmonary fibrosis patients; conditions = oral, 30 mg once daily; result = 0%
test = Phase 2a trial, refers to: haemoptysis; system = human, idiopathic pulmonary fibrosis; conditions = all compound arms, grade 5; result = 0%
test = Phase 2a trial, refers to: hyperlipidaemia; system = human, idiopathic pulmonary fibrosis; conditions = 60 mg once daily, grade 2; result = 0%
test = refers to: any adverse event, grade 4; system = idiopathic pulmonary fibrosis patients; conditions = oral, 30 mg once daily; result = 0%
test = refers to: ALT increase; system = patients with idiopathic pulmonary fibrosis; conditions = 30 mg twice daily, trial, without standard of care; result = 0%
test = refers to: abnormal liver function test, grade 5; system = idiopathic pulmonary fibrosis patients; conditions = dose not given, all compound arms pooled; result = 0%
test = Phase 2a trial, refers to: blood lactate dehydrogenase increased; system = human, idiopathic pulmonary fibrosis; conditions = 30 mg once daily, grade 1; result = 0%

Sample 2
SMILES: COc1ccc2c(c1)O[C@H](c1ccc(OC)c(OC)c1)C[C@@H]2NC(=O)C1(c2ccc3c(c2)OC(F)(F)O3)CC1
Tested at: 1 µM
Measurement: remaining binding
target = STK17B (Homo sapiens, UniProt O94768); test = cell-free assay, competition with immobilised ligand; result = 100%
target = SIK1 (Homo sapiens, UniProt P57059); test = competition binding; result = 100%
target = MAPK15 (Homo sapiens, UniProt Q8TD08); test = cell-free assay, competition with immobilised ligand; result = 100%
target = NEK6 (Homo sapiens, UniProt Q9HC98); test = cell-free assay, competition with immobilised ligand; result = 100%
target = STK35 (Homo sapiens, UniProt Q8TDR2); test = cell-free assay, competition with immobilised ligand; result = 100%
target = ALK (Homo sapiens, UniProt Q9UM73, C1156Y); test = cell-free assay, competition with immobilised ligand; result = 100%
target = Aurora kinase A (AURKA, Homo sapiens, UniProt O14965); test = cell-free assay, competition with immobilised ligand; result = 100%
target = PRPF4B (Homo sapiens, UniProt Q13523); test = cell-free assay, competition with immobilised ligand; result = 56%
target = EPHA6 (Homo sapiens, UniProt Q9UF33); test = cell-free assay, competition with immobilised ligand; result = 100%
target = PRKD3 (Homo sapiens, UniProt O94806); test = cell-free assay, competition with immobilised ligand; result = 100%
target = Ribosomal protein S6 kinase alpha-5, C-terminal kinase domain (RPS6KA5, Homo sapiens, UniProt O75582); test = cell-free assay, competition with immobilised ligand; result = 100%
target = IKBKE (Homo sapiens, UniProt Q14164); test = cell-free assay, competition with immobilised ligand; result = 96%
target = EIF2AK2 (Homo sapiens, UniProt P19525); test = cell-free assay, competition with immobilised ligand; result = 100%
target = DMPK (Homo sapiens, UniProt Q09013); test = cell-free assay, competition with immobilised ligand; result = 94%
target = KIT (Homo sapiens, UniProt P10721, A829P); test = cell-free assay, competition with immobilised ligand; result = 69%
target = MTOR (Homo sapiens, UniProt P42345); test = cell-free assay, competition with immobilised ligand; result = 100%

Sample 3
Structure (SMILES): CC(C)(C)n1nc(Cc2cccc3ccccc23)c2c(N)ncnc21
Effect on: enzyme activity
Action: inhibitor
Tested at: 0.5 µM
Reference: control
Measurement: remaining activity
target = EPHA4 (Homo sapiens, UniProt P54764); result = 48.9%
target = PRKACG (Homo sapiens, UniProt P22612); result = 55.2%
target = MAPKAPK3 (Homo sapiens, UniProt Q16644); result = 110%
target = RPS6KA5 (Homo sapiens, UniProt O75582); result = 88.9%
target = SRMS (Homo sapiens, UniProt Q9H3Y6); result = 101%
target = RPS6KA6 (Homo sapiens, UniProt Q9UK32); result = 94.2%
target = ABL1 (Homo sapiens, UniProt P00519); result = 91.1%
target = Cyclin-dependent kinase 4, with cyclin D3 (CDK4, Homo sapiens, UniProt P11802); result = 95.8%
target = EPHB1 (Homo sapiens, UniProt P54762); result = 47.7%
target = HIPK4 (Homo sapiens, UniProt Q8NE63); result = 92.4%
target = PHKG1 (Homo sapiens, UniProt Q16816); result = 91.3%
target = Cyclin-dependent kinase 1, with cyclin B (CDK1, Homo sapiens, UniProt P06493); result = 107%
target = EPHB4 (Homo sapiens, UniProt P54760); result = 30.7%
target = STK16 (Homo sapiens, UniProt O75716); result = 97.6%
target = WNK3 (Homo sapiens, UniProt Q9BYP7); result = 91.2%
target = CAMK2B (Homo sapiens, UniProt Q13554); result = 98.9%
target = TSSK2 (Homo sapiens, UniProt Q96PF2); result = 87.6%
target = HIPK2 (Homo sapiens, UniProt Q9H2X6); result = 102%
target = AXL (Homo sapiens, UniProt P30530); result = 103%
target = Cyclin-dependent kinase 6, with cyclin D3 (CDK6, Homo sapiens, UniProt Q00534); result = 97.3%
target = DYRK3 (Homo sapiens, UniProt O43781); result = 94%
target = PDPK1 (Homo sapiens, UniProt O15530); result = 103%
target = BLK (Homo sapiens, UniProt P51451); result = 95.5%
target = STK17A (Homo sapiens, UniProt Q9UEE5); result = 93.3%
target = MAP4K4 (Homo sapiens, UniProt O95819); result = 43.5%

Sample 4
Organism: Sarcocystis neurona
Effect on: parasite growth
Tested at: 10 µM
Time: 96 h
Reference: untreated
Measurement: log2 fold change
Structure (SMILES) = CCOC(=O)OC(C)OC1=C(C(=O)Nc2ccccn2)N(C)S(=O)(=O)c2ccccc21 (centres unmarked); result = 0.31
Structure (SMILES) = COc1ccnc(C[S+]([O-])c2nc3ccc(OC(F)F)cc3[nH]2)c1OC (centres unmarked); result = 0.53
Structure (SMILES) = Cc1c(O)cccc1C(=O)N[C@@H](CSc1ccccc1)[C@H](O)CN1C[C@H]2CCCC[C@H]2C[C@H]1C(=O)NC(C)(C)C; result = -1.47
Structure (SMILES) = NC(=O)c1ncn([C@@H]2O[C@H](CO)[C@@H](O)[C@H]2O)n1; result = 0.36
Structure (SMILES) = O=C(CCCN1CCC(O)(c2ccc(Cl)cc2)CC1)c1ccc(F)cc1; result = -0.31
Structure (SMILES) = C#C[C@]1(O)CC[C@H]2[C@@H]3CCC4=Cc5oncc5C[C@]4(C)[C@H]3CC[C@@]21C; result = -0.18
Structure (SMILES) = CCc1nn(CCCN2CCN(c3cccc(Cl)c3)CC2)c(=O)n1CCOc1ccccc1; result = -1.66
Structure (SMILES) = C[C@@H](O)[C@H]1C(=O)N2C(C(=O)O)=C(S[C@@H]3CN[C@H](C(=O)N(C)C)C3)[C@H](C)[C@H]12; result = 0.19
Structure (SMILES) = Cc1nc2n(c(=O)c1CCN1CCC(c3noc4cc(F)ccc34)CC1)CCCC2; result = -0.0641
Structure (SMILES) = CC(=O)OCC(=O)[C@@]12OC(C)(C)O[C@@H]1C[C@H]1[C@@H]3C[C@H](F)C4=CC(=O)C=C[C@]4(C)[C@@]3(F)[C@@H](O)C[C@@]12C; result = 0.42
Structure (SMILES) = CCCc1nc2c(C)cc(-c3nc4ccccc4n3C)cc2n1Cc1ccc(-c2ccccc2C(=O)O)cc1; result = -0.16
Structure (SMILES) = CCC(=O)OCC(=O)[C@@]1(OC(=O)CC)[C@@H](C)C[C@H]2[C@@H]3CCC4=CC(=O)C=C[C@]4(C)[C@@]3(Cl)[C@@H](O)C[C@@]21C; result = 0.32

A few entries again (sample 2):
target = KIT (Homo sapiens, UniProt P10721, A829P); test = cell-free assay, competition with immobilised ligand; result = 69%
target = DMPK (Homo sapiens, UniProt Q09013); test = cell-free assay, competition with immobilised ligand; result = 94%
target = PRKD3 (Homo sapiens, UniProt O94806); test = cell-free assay, competition with immobilised ligand; result = 100%
target = EIF2AK2 (Homo sapiens, UniProt P19525); test = cell-free assay, competition with immobilised ligand; result = 100%
